Published values gathered from unrelated publications.
Each line is one published result; not all experiments were run side by side. Values joined by “and” are separate records of one study, mostly repeats; a detail may differ. ± marks the error that the study gave.
KCNQ3/KCNQ2: Voltage-gated potassium channel, KQT; KCNQ2(Kv7.2)/KCNQ3(Kv7.3) (KCNQ3/KCNQ2, Homo sapiens, UniProt O43525+O43526)
Glutamate receptor 2: Glutamate receptor 2 (Homo sapiens, UniProt P42262)
Genome polyprotein NS3 helicase domain: Genome polyprotein, NS3 helicase domain (Hepatitis C virus genotype 1b, UniProt Q9WMX2)
MAP2K4: Dual specificity mitogen-activated protein kinase kinase 4 (MAP2K4, Homo sapiens, UniProt P45985)
DRD3: D(3) dopamine receptor (DRD3, Homo sapiens, UniProt P35462)
PRKCB isoform beta-II: Protein kinase C beta type, isoform beta-II (PRKCB, Homo sapiens, UniProt P05771)

CC(C)NCC(O)COc1cccc2ccccc12 (centres unmarked) — inhibition (KCNQ3/KCNQ2; ion current, antagonist, SyncroPatch patch clamp; HEK293; 3 µM): 9%
[2H]c1cc(C)c(NC(=O)c2cnc(Nc3cc(N4CCCCC4)nc(C)n3)s2)c(Cl)c1 — inhibition (FYN (Homo sapiens, UniProt P06241); 0.01 µM): > 90%
COc1cc(C2NCCc3cc(O)c(O)cc32)ccc1O (centres unmarked) — inhibition (tyrosinase; enzyme activity, inhibitor; 100 µM, added: levodopa): 12.8 ± 3.66%
COc1ccc(F)cc1C(=O)NCc1ccc(-c2nn([C@@H](C)C(F)(F)F)c(N)c2C(N)=O)cc1 — inhibition (BTK (Homo sapiens, UniProt Q06187); probe binding, competitive chemoproteomics; human PBMCs; 10 µM): > 90%
CC12CC3CC(C)(C1)CC(N)(C3)C2 — inhibition (Glutamate receptor 2; ion current, negative allosteric modulator, SyncroPatch patch clamp; HEK293; 3 µM): 15%
CCc1nn(C)c2nc(-c3ccc(C(=O)O)cc3)nc(NCc3ccc(F)cc3)c12 — inhibition (PDE3A (Homo sapiens, UniProt Q14432); enzyme activity; 10 µM, added: [3H]cAMP): 30.1%
O=C(COc1ccc(Cl)cc1Cl)N/N=C/c1c[nH]c2ccccc12 — inhibition (dxs (Deinococcus radiodurans, UniProt Q9RUB5); enzyme activity, inhibitor; 120 µM): 30.1%
Cc1ccc(C(=O)Nc2ccc3ccccc3c2)o1 — inhibition (Asic1 (Rattus norvegicus, UniProt P55926); ion current, whole-cell patch-clamp; 10 µM, rASIC1a): 5.13%
Cc1cc(-c2ccnc3[nH]cc(F)c23)cc(F)c1[C@@]1(O)[C@H](C)CN(C2CCS(=O)(=O)CC2)C[C@@H]1C — inhibition (CDK11 and CDK8; ATP probe binding, KiNativ, refers to: Lys2 site; HEK293T cell lysate; 0.1 µM): 8.9%
CCNCc1cnn(-c2ccc(-n3ccc(Cl)c(Cl)c3=O)cc2)c1C(F)(F)F — inhibition (Trpa1 (Mus musculus, UniProt Q8BLA8); ion current, inhibitor, whole-cell patch clamp; 10 µM, added: AITC-activated): no inhibition
COc1cc(C(=O)NS(=O)(=O)c2ccccc2C)ccc1Cc1cn(C)c2ccc(NC(=O)OC3CCCC3)cc12 — inhibition (LRRC8A/LRRC8C (Homo sapiens, UniProt Q8IWT6+Q8TDW0, Y124F/Y126F); ion current, whole-cell patch clamp; HCT LRRC8-/- cells; 100 µM, +100 mV, Y124F/Y126F heteromers): 81.8% and 79.2% and 87.2% and 90.1%
Cc1nc(N=Nc2ccc(C(=O)O)cc2)c(COP(=O)(O)O)c(C=O)c1O — inhibition (Genome polyprotein NS3 helicase domain; DNA binding, inhibitor; hepatitis C virus; 100 µM, added: Cy5-dT15 DNA): 43%
C[C@H]1C(=O)/C(=C/c2ccccc2)[C@H]2C[C@@H]1N(Cc1ccccc1)C[C@@]2(C)O — inhibition (OPRK1 (Cavia porcellus, UniProt P41144); binding, radioligand binding; guinea pig brain; 1 µM, added: [3H]U-69,593): 0%
CN(C(=O)n1cnc(-c2ccc[n+]([O-])c2)c1)C1CCCCC1 — inhibition (Voltage-dependent N-type calcium channel subunit alpha-1B (Homo sapiens, UniProt Q00975); 10 µM): -3.12%
Cn1c(=O)c2[nH]cnc2n(C)c1=O — inhibition (KCNQ3/KCNQ2; ion current, antagonist, SyncroPatch patch clamp; HEK293; 3 µM): 0%
CNc1cc(Oc2cc(C(=O)Nc3cc(N4CCN(C)CC4)cc(C(F)(F)F)c3)ccc2C)ncn1 — inhibition (MAP2K4; probe labelling, KiNativ; Huh-7, live cells; 1 µM, Lys2 site, peptide DIKPSNILLDR): -97.6%
Cc1nn(-c2nc3c(F)cc(F)cc3s2)c(O)c1C(c1ccc(C(F)(F)F)cc1)c1c(C)nn(-c2nc3c(F)cc(F)cc3s2)c1O — inhibition (CGAS (Homo sapiens, UniProt Q8N884); enzyme activity, inhibitor, PPiase-coupled; 12.5 µM, 1.5 h): 48.6%
COc1ccc2c(c1)CN(CCCN1CCN(c3ccccc3OC)CC1)C2=O — inhibition (DRD3; radioligand binding; concentration not given, added: [3H]N-methylspiperone): 94.7%
Cc1ccc2c(c1)C(=O)[C@]1(O)CCN(c3ccc4nc(C)ccc4c3)C1=N2.Cl — inhibition (A-type voltage-gated potassium channel KCND3, with KChIP2 (KCND3, Homo sapiens, UniProt Q9UK17); concentration not given): < 25%
O=C1NC(=O)C(c2ccccc2)(c2ccccc2)N1 — inhibition (KCNQ3/KCNQ2; ion current, antagonist, SyncroPatch patch clamp; HEK293; 10 µM): 0%
Cl.O=C(CCCCCN1CCN(c2ccccc2-c2ccccc2)CC1)NC1CCCc2ccccc21 (centres unmarked) — inhibition (Genome polyprotein NS3 helicase domain; DNA binding, inhibitor; hepatitis C virus; 100 µM, added: Cy5-dT15 DNA): 0%
COc1cccc(C2NCCc3cc(O)c(O)cc32)c1O (centres unmarked) — inhibition (tyrosinase; enzyme activity, inhibitor; 100 µM, added: levodopa): 35.4 ± 0.72%
Nc1c(Br)cc(Br)cc1CN[C@H]1CC[C@H](O)CC1 — inhibition (Glutamate receptor 2; ion current, negative allosteric modulator, SyncroPatch patch clamp; HEK293; 10 µM): 24%
CC(N)(Cc1ccc(O)c(O)c1)C(=O)O (racemic) — inhibition (Genome polyprotein NS3 helicase domain; DNA binding, inhibitor; hepatitis C virus; 100 µM, added: Cy5-dT15 DNA): 0%
NC/C(=C\F)COc1cccc(Cn2c(=S)[nH]c(=O)c3[nH]cnc32)c1 — inhibition (AOC3 (Homo sapiens, UniProt Q16853); H2O2 production, Amplex Red; 0.0412 µM, recombinant human enzyme): 83.8% and 86.8%
CCOC(=O)N1CCC(=C2c3ccc(Cl)cc3CCc3cccnc32)CC1 — inhibition (Genome polyprotein NS3 helicase domain; enzyme activity; hepatitis C virus; 100 µM): 0%
COc1ccc2c(c1)C(=O)N(CCCN1CCN(c3ccccc3OC)CC1)C2 — inhibition (DRD3; radioligand binding; concentration not given, added: [3H]N-methylspiperone): 94.1%
Oc1cc2c(cc1O)C(Cc1ccccc1)NCC2 (centres unmarked) — inhibition (tyrosinase; enzyme activity, inhibitor; 100 µM, added: levodopa): 28.8 ± 2.15%
CCC(C)N(C)C(=O)c1cc2ccccc2c(-c2ccccc2Cl)n1 (centres unmarked) — inhibition (Genome polyprotein NS3 helicase domain; DNA binding, inhibitor; hepatitis C virus; 100 µM, added: Cy5-dT15 DNA): 0%
CCc1oc2ccccc2c1C(=O)c1cc(Br)c(O)c(Br)c1 — inhibition (SLC22A12 (Homo sapiens, UniProt Q96S37, H245A); uric acid uptake; HEK293T transfected with SLC22A12 H245A; 0.5 µM, 10 min, 37 °C, added: [14C]urate 200 µM): 72.8% and 66.9% and 68.2%
COc1cc2nccc(Oc3ccc(NC(=O)c4cc5c(n(-c6ccccc6)c4=O)CCCC5=O)nc3)c2cc1OC — inhibition (MERTK (Homo sapiens, UniProt Q12866); inhibitor; human patients; 6 mg once daily, day 29, combination with venetoclax): 79 to 81%
Cn1cc(-n2cnc3c(NCc4nc5cc(Cl)c(Cl)cc5[nH]4)nc(N4CCOCC4)nc32)cn1 — inhibition (Cyclin-dependent kinase 12, with cyclin K (CDK12, Homo sapiens, UniProt Q9NYV4); kinase activity, inhibitor, ADP-Glo; 0.0003 µM): 11.5%
CNCC(O)c1ccc(O)c(O)c1.Cl (racemic) — inhibition (Genome polyprotein NS3 helicase domain; DNA binding, inhibitor; hepatitis C virus; 100 µM, added: Cy5-dT15 DNA): 0%
O=C(NO)c1ccc(CN2CCCCc3ccccc32)c(F)c1 — inhibition (DRD3; radioligand binding, radioligand displacement; 10 µM, mean of replicates): 42.8%
CNCc1ccc(-c2cc(-c3nc(-c4ccc(S(=O)(=O)C(C)C)cc4)cnc3N)on2)cc1 — inhibition (PRKCB isoform beta-II; enzyme activity; 2 µM, added: ATP at Km): 7%
Cc1ccc2nc(CN(CCN(Cc3nc4ccc(C)cc4[nH]3)Cc3nc4ccc(C)cc4[nH]3)Cc3nc4ccc(C)cc4[nH]3)[nH]c2c1 — inhibition (Genome polyprotein NS3 helicase domain; DNA binding, inhibitor; hepatitis C virus; 100 µM, added: Cy5-dT15 DNA): 0%
c1cncc(OC[C@H]2CN(CCN3CCc4ccccc43)CCO2)c1 — inhibition (DRD3; radioligand binding; concentration not given, added: [3H]N-methylspiperone): 26.7%
COc1cc2ncnc(Nc3ccc(Oc4ccccc4)c(C)c3C)c2cc1OC — inhibition (PRKCB isoform beta-II; kinase activity, inhibitor; 1 µM): 10%
Clc1cccc(OC[C@@H]2CN(CCN3CCc4ccccc43)CCO2)c1 — inhibition (DRD3; radioligand binding; concentration not given, added: [3H]N-methylspiperone): 52%
Oc1ccc2ccccc2c1SSc1c(O)ccc2ccccc12 — inhibition (Genome polyprotein NS3 helicase domain; DNA binding, inhibitor; hepatitis C virus; 100 µM, added: Cy5-dT15 DNA): 3%
Clc1cncc(OC[C@H]2CN(CCN3CCc4ccccc43)CCO2)c1 — inhibition (DRD3; radioligand binding; concentration not given, added: [3H]N-methylspiperone): 1.3%
CC[C@@H]1[C@H](F)C(=O)N[C@@H]1COc1nccc2cc(C(N)=O)c(OC)cc12 — inhibition (MAP2K4; ATP-site probe binding, ActivX profiling; THP-1 cell lysate; 0.2 mM, Lys1 site): 0.7%
Cc1ccnc(C)c1OC[C@H]1CN(CCN2CCc3ccccc32)CCO1 — inhibition (DRD3; radioligand binding; concentration not given, added: [3H]N-methylspiperone): 4.7%
Cc1nc(Nc2ncc(C(=O)Nc3c(C)cccc3Cl)s2)cc(N2CCN(CCO)CC2)n1 — inhibition (Insulin-like receptor (daf-2, Caenorhabditis elegans, UniProt Q968Y9); inhibitor, radiometric phosphocellulose; 10 µM, added: ATP 0.2 mM): ~50%

Excerpt of the above:
Cn1c(=O)c2[nH]cnc2n(C)c1=O — inhibition (KCNQ3/KCNQ2; ion current, antagonist, SyncroPatch patch clamp; HEK293; 3 µM): 0%
Cc1nn(-c2nc3c(F)cc(F)cc3s2)c(O)c1C(c1ccc(C(F)(F)F)cc1)c1c(C)nn(-c2nc3c(F)cc(F)cc3s2)c1O — inhibition (CGAS (Homo sapiens, UniProt Q8N884); enzyme activity, inhibitor, PPiase-coupled; 12.5 µM, 1.5 h): 48.6%
CC(C)NCC(O)COc1cccc2ccccc12 (centres unmarked) — inhibition (KCNQ3/KCNQ2; ion current, antagonist, SyncroPatch patch clamp; HEK293; 3 µM): 9%
CNCc1ccc(-c2cc(-c3nc(-c4ccc(S(=O)(=O)C(C)C)cc4)cnc3N)on2)cc1 — inhibition (PRKCB isoform beta-II; enzyme activity; 2 µM, added: ATP at Km): 7%
NC/C(=C\F)COc1cccc(Cn2c(=S)[nH]c(=O)c3[nH]cnc32)c1 — inhibition (AOC3 (Homo sapiens, UniProt Q16853); H2O2 production, Amplex Red; 0.0412 µM, recombinant human enzyme): 83.8% and 86.8%
Oc1ccc2ccccc2c1SSc1c(O)ccc2ccccc12 — inhibition (Genome polyprotein NS3 helicase domain; DNA binding, inhibitor; hepatitis C virus; 100 µM, added: Cy5-dT15 DNA): 3%
CN(C(=O)n1cnc(-c2ccc[n+]([O-])c2)c1)C1CCCCC1 — inhibition (Voltage-dependent N-type calcium channel subunit alpha-1B (Homo sapiens, UniProt Q00975); 10 µM): -3.12%
